Results pooled from the literature.
Numbered parts are unrelated; each lists some results of a single study.

Block 1
Target: Interferon regulatory factor 7, full length, phosphomimetic (IRF7, Homo sapiens, UniProt Q92985, residues 1-503, S101K/S471D/S472D/S475D/S476D/S477D/S483D/S484D/S487D)
Chain of UniProt Q92985 (whole entry, unmodified, looked up): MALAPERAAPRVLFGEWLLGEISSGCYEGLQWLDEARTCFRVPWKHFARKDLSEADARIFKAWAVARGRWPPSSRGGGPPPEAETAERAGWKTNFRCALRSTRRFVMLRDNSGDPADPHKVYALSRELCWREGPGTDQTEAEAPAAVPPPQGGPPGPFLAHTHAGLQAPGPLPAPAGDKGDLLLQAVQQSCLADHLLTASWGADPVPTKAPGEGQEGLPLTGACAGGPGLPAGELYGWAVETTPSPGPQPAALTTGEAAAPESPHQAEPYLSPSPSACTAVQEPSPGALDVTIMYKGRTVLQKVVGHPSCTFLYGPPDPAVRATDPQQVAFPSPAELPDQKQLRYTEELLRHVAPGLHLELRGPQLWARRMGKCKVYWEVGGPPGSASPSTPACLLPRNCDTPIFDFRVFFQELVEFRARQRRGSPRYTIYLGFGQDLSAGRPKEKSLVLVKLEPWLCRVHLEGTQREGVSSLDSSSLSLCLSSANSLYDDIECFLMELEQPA
Technique: protein-binding microarray
Form: double-stranded DNA, one strand shown
Matrix: in vitro
Concentration: 250 nM
Notes: 60-bp whole probe
With: salmon DNA 0.4 mg/ml
Reference: random background probes
Direction: higher = stronger binding
Constant ends, left off below: GCCTAGCAC … GTCTTGATTCGCTTGACGCTGCTG
Oligonucleotide	log fluorescence [z-score]
TTAGGACTGAGTTTCGGTTAGTGCTAG	7.25
TTAGGTCTCCTTATCCCTTAGTGCTAG	0.475
GACGGTTTCGGGACTGGGTACGTGCTA	4.07
TCACACATTTTTTTCATACTGTGCTAG	0.818
TTAGGAGTGGGGTATCGGTTAGTGCTA	-0.0781
TCATTTTTCTCCTATTTAACTGTGCTA	1.58
TCAGGTAGCCTTATCCCTAAGTGCTAG	-0.553
GACGATATCGGGACTGGAGTCGTGCTA	-0.231
ATGTTTTTCATTTTGTTCATGTGCTAG	4.54
GACGGTTTCGGGACTGGCGACGTGCTA	4.03
GACGATATCAATTTCGAGACGTGCTAG	0.397
TTAGGTCTCGGTCTCGGTGAGTGCTAG	1.23
GACGGACTGGGGTATCGGGCCGTGCTA	-1.18
GACGTTATCGGTCTCGGGACGTGCTAG	0.423
GACGATATCCTACTGCTGACGTGCTAG	-0.0783
TTAGAACTGGGGTATCGATTGGTGCTA	0.404
GACGGTTTCCCTATCCTGACGTGCTAG	2.83
TCACATGTCTGTGTCACACTGTGCTAG	0.0437
GACGGAATCGACTATCGGGACGTGCTA	-0.0786

Block 2
Target: Fragile X messenger ribonucleoprotein 1, C-terminal low-complexity region (Fmr1, Mus musculus, UniProt P35922)
Technique: RNA Bind-n-Seq
Form: RNA
Matrix: in vitro
Concentration: 200 nM
Notes: whole 134-nt RNA, ends assumed
With: 150 mM LiCl
Reference: input library
Direction: higher = stronger binding
All molecules: 7-deaza-guanosine replaces G
Constant ends, left off below: GGGAGUUCUACAGUCCGACGAUC … UGGAAUUCUCGGGUGUCAAGG
Oligonucleotide	log2 enrichment
CCUCAAGUCCUGUGCUACACAUCGUAUGUACCGAAUCGGGGAGGGGAGGAGGGAAAGUAUUAUGUUACGCCGUUCGGAUCUGCACUUCCA	-0.483
CCUGUGCUACACAUCGUAUGUACCGAAUCGGAAAAAAAGGGAAAAAAAGGGAAAAAAAGGAAAGUAUUAUGUUACGCCGUUCGGAUCUGC	-0.597
UGGCUCUGGUGGCAUGCGGGGAGGAAGAGGUGGCCUCAUGGAUCGUGGUGGUCCCGGUGGAAUGUUCAGAGGUGGCCGUGGUGGAGACAG	-0.173
UCAAGUCCUGUGCUACACAUCGUAUGUACCGAAUCGGGUUUGGGAAAGGGAGGGAAAGUAUUAUGUUACGCCGUUCGGAUCUGCACUUCC	-1.31
UGGCCCUGGUGGCAUGCGGGGAGGAAGAGGUGGCCUCAUGGCUCGUGGUGGUCCCGGUGGAAUGUUCAGAGGUGGCCGUGGUGGAGACAG	-0.351
CAGCAGCAGAGUGAGUGGAUUUUAUUUUUCGUUAUUGUUGGUGGUUUAAAAAAUUCCCCCCAUGUAAUUAUUGUGAACACCUUGCUUUGU	-0.609
UCAAGUCCUGUGCUACACAUCGUAUGUACCGAAUCGGUUUGGAAAAAGGUUUGGAAAGUAUUAUGUUACGCCGUUCGGAUCUGCACUUCC	-2.15
UUAGAAGAAUUUGGAAGGCCUUAAAUAUAGUAGCUUAGUUUGAAAAAUGUGAAGGACUUUCGUAACGGAAGUAAUUCAAGAUCAAGAGUA	-3.6
UAACUUUAGAGGAGGAUCUGAUGGAUAUGGCAGUGGACGUGGAUUUGGGGAUGGCUAUACUGGGUAUGGAGGAGGACCUGGAGGUGGCAA	-0.367
UGGGAGGUGGAUUUUGUUUAUUUUUUUAGCUCAUUUCCAGGGGUAGGAAUUUUUUUUUAAUAUGUGUCAUGAAUAAAGUUGUUUUUGAAA	-0.945
CUGUGCUACACAUCGUAUGUACCGAAUCGGGGAAAAAGGGGUUUUUUUGGGGUUUUUGGGGAAAGUAUUAUGUUACGCCGUUCGGAUCUG	-1.81

Block 3
Target: Histone acetyltransferase KAT6A, both winged helices, GST fusion (KAT6A, Homo sapiens, UniProt Q92794, residues 1-181)
Technique: protein binding microarray
Form: double-stranded DNA, one strand shown
Matrix: in vitro
Concentration: not given
Notes: 8-mer, flanks averaged, mean of 2 arrays, mostly near background
Reference: not given
Direction: higher = stronger binding
Target sequence (chain): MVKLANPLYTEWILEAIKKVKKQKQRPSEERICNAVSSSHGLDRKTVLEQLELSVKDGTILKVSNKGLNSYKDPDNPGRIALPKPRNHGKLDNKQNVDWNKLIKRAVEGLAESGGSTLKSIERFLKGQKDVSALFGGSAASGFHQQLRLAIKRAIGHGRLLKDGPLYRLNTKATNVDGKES
Oligonucleotide	E-score
CTCCGTCC	0.0952
CCCAAAGA	-0.264
CTGCGTAA	0.145
ACTTGGTG	-0.272
CGCTGTAC	0.178
AGTTGCGC	0.243
CTTCTAGC	-0.163
AGATAGCC	-0.108
CGGCTTTA	0.243
CCGACTCG	0.0806
AGTAGCCA	-0.235
AAAGACGA	-0.168
ACCCATAA	-0.131
CCTCGTAA	-0.00389
ACTGTCGG	0.158
ACCTAGAA	-0.128
GTTATAAA	-0.0974
ACTTAAGG	-0.121
ATGACGCA	0.0537
CCCGCCTA	0.171
AGCGCGCA	0.399
ACTATTGA	-0.119
CAACGCGG	0.257
CCGGACCG	0.127
AGGCGATC	-0.0383

Block 4
Target: RNA binding protein fox-1 homolog 2, RRM domain, GST-SBP tag (RBFOX2, Homo sapiens, UniProt O43251-10, residues 100-194)
Technique: RNA Bind-n-Seq
Form: RNA
Matrix: in vitro
Concentration: 365 nM
Notes: natural RNA segment, single round, ends assumed
Reference: no-protein control
Direction: higher = stronger binding
Constant ends, left off below: GGGAGUUCUACAGUCCGACGAUC … UGGAAUUCUCGGGUGCCAA
Residues (chain): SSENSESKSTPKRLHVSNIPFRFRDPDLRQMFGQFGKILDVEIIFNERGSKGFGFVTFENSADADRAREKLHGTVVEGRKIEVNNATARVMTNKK
Oligonucleotide	RBNS enrichment (R)
CUCCUUGUCUGAGGUGAAAGCCUUCAGUUUAGCUCCCUGGCCCUUGUGUGGAAGCAAUGUGGAGUGAAUGAGCAUAUUUUGAUUUAAGCAAGGUAGCUUGGAAUACCUUU	18.5
GUGCAUUUUAUACUGUAUUAAAUAUGGAGAUACUUCUAAUGCCUCUCUAAAAUUAAAUUUUACAUAAAAGUUAGUUUUAUUCACCUUUAGGCUUUCCAAGUGAAUUGUGA	2.71
CUACAUGCUUUUUGUAUCACACAGUAUAUGAUGGGGCAUGUGCCAUAGUGCAGGCUUGGGGAGCUUUAAGCCUCAGUUAUAUAACCCACGAAAAACAGAGCCUCCUAGAU	0.354
AAUCAUAACUCAGGGGCUUUGAACAGAGCUGUCUCUGUUUCAAUUGGCAUCCUUGCUCAUCCAUUCCUGUCUACCUCCCUUGUUAGUCUAGAUUUCUGGAGUUAUGUUCC	0.311
CUUUCCCUCCAUUUCUGUGGCUUCCACGUCUGCAGUGGCCACUGAUACUCACUUGAGUCAGGCUCCCUCUGGCAGGAGGGAGCACUGUGGAUGUCUGCGCCAGGGCCAGC	0.592
CUUCCUCAGGGACGUACAGGCUGUCUGCUGAGCAGCCCCCACUCUUCUUUAUGGCAACAGGAGGAGAAAGCAAGGCCCAGGAGAGGAGGCCUCCAAGGCAGAAGCUAUUG	0.309
ACAAUAUAGCACUGACUGAGUUGUAAAGCCUCCUGCCUGGAGACUUCAGUUAUAGCUGUAAUAAUUAAUCUUAUUUAUAAAAGCCACUCCACUAACCUUUUCUCUCCAAC	0.705
GGUGGGGGCUCCUGCCCUCCUCCAACAACCCAGGACACCCACGCCUCACCCCUCGGUGCCUGGGCCCAGCCCCGUGCCCCUCCGUCUGCCUCCGCACGGCUGGCAGAGGG	0.4
UCCCACUCCUUCGUUUUUCCUCUCAAAUCUCCUUGGUGACCUCAUUGACUGGGAGCAUGGCCAGGCAUCUCCAGGUUCUAAGCUUUGGGAAGCUACACUUCCAAGUUGCU	0.918
CAGUCAUUUCUGAAUCUUUCCACAUUAUAUUAUAAAAUAUGGAAAUGUCAGUUUAUCUCCCCUCCUCAGUAUAUCUGAUUUGUAUAAGUAAGUUGAUGAGCUUCUCUCUA	0.409
ACUCCUGGUGCUUUGUACUACUGGUUCAGCGGCCUCGGGCUUCUUUUCUAUAUUAAUAAAGAAGAGUAAAAACUGUCAGUGAUGACACUGUUUAAUAUUGAUCUCACAAG	0.283
UCUUAAGCAGUGCUCCACUAACGGUCACUCAGGGACCACCUACCCAGAACAGACGGGGAAUUGAAAUUUUUUACUCCCUCUACCCACUCCAGACAGAAGCUCAGGGUGUG	0.261
